# Results pooled from the literature.
# Lines come from different studies, so protocols differ. Several values in a cell are separate wells, animals, samples, runs or records. ± marks the error that the study gave.
# USP5: Ubiquitin carboxyl-terminal hydrolase 5 (USP5, Homo sapiens, UniProt P45974)
# CASP4: Caspase-4 (CASP4, Homo sapiens, UniProt P49662)
SMILES,tested on,test,system,conditions,scale,measurement,result
COc1cc(Nc2nccc(-c3cnn4nc(OC)ccc34)n2)cc(C(F)(F)F)c1,"EGFR (Homo sapiens, UniProt P00533, L861Q)",binding,,1 µM,,remaining binding,100%
c1ccc(-c2cnc3nonc3n2)cc1,USP5,"enzyme activity, inhibitor",,17 µM,,inhibition,7%
[3H]C([3H])([3H])OC1(C2=NCCN2)COc2ccccc2O1 (stereo not drawn),"Alpha-2C adrenergic receptor (Mus musculus, UniProt Q01337, A13D)",radioligand binding,HEK293 membranes,α2c(A13D)-AR mutant,,Bmax,1.83 ± 0.12 pmol/mg protein
CC(=O)N[C@@H](CC(C)C)C(=O)N[C@@H](CCC(=O)O)C(=O)N[C@@H](CCC1CCCCC1)C(=O)N[C@@H](CC(=O)O)C(=O)COC(=O)c1c(C)cccc1C,CASP4,"enzyme activity, inhibitor",,,,kinact/KI,38000 M⁻¹ s⁻¹
Cc1nn(-c2cccc(N)c2)c(=O)c2cnc(Nc3ccc(N4CCNCC4)cc3)nc12,"FES (Homo sapiens, UniProt P07332)","enzyme activity, inhibitor",,,,IC50,1.76 µM
C=CC(=O)Nc1cccc(Cn2ncc3cnc(Nc4cnn(CCOC)c4)nc32)c1,CHEK1 human,"binding, KINOMEscan",,100 nM,lower = stronger binding,percent of control,100%
O=C1C(=CO)c2ccccc2-c2ccccc21,USP5,"enzyme activity, inhibitor",,17 µM,,inhibition,100%
Nc1ncc(-c2cc(-c3cnn(CC(F)(F)F)c3)ncc2F)nc1C(=O)NC1CNCC(F)C1 (stereo not drawn),PAK6,KINOMEscan,,1 µM,relative to: DMSO control,remaining binding,76%
CC(=O)N[C@@H](Cc1ccccc1Cl)C(=O)N[C@@H](CCC(=O)O)C(=O)N[C@@H](C)C(=O)N[C@@H](CC(=O)O)C(=O)COC(=O)c1c(C)cccc1C,CASP4,inhibitor,,recombinant enzyme,,kobs/[I],60200 M⁻¹ s⁻¹
COC1CN([C@H]2CC[C@H]([C@@]3(C)Oc4c(Cl)cc(C(=O)NCc5c(SC)cc(C)[nH]c5=O)c(C)c4O3)CC2)C1,,"RNA-seq, measured: NDST3 mouse homolog","mouse, HT-1376 xenograft, whole blood",dose not given,relative to: vehicle,log2 fold change,0.104
C=CC(=O)N1CCCC(n2c(=O)c3ncccc3n(Cc3ccc(Oc4ccccc4)cc3)c2=O)C1 (stereo not drawn),"MYG1 exonuclease (MYG1, Homo sapiens, UniProt Q9HB07)","thermal proteome profiling, measured: C12orf10",,treated,,melting temperature,54.2 °C and 45.1 °C
CC(C)Oc1cc(Cl)ccc1CNc1cc(-c2ccccc2)nc2ncnn12,"GPR3 (Homo sapiens, UniProt P46089, R152A)","cAMP level, cAMP GloSensor",,10 nM,higher = more cAMP,cAMP luminescence,28800 a.u. and 38200 a.u. and 43100 a.u. and 38600 a.u.

# A few entries again:
SMILES,tested on,test,system,conditions,scale,measurement,result
CC(=O)N[C@@H](CC(C)C)C(=O)N[C@@H](CCC(=O)O)C(=O)N[C@@H](CCC1CCCCC1)C(=O)N[C@@H](CC(=O)O)C(=O)COC(=O)c1c(C)cccc1C,CASP4,"enzyme activity, inhibitor",,,,kinact/KI,38000 M⁻¹ s⁻¹
